{"data": "Measured values gathered from unrelated publications", "note": "Parts stem from different laboratories: compare values within a part only.", "chain of UniProt P36507 (whole entry, looked up)": "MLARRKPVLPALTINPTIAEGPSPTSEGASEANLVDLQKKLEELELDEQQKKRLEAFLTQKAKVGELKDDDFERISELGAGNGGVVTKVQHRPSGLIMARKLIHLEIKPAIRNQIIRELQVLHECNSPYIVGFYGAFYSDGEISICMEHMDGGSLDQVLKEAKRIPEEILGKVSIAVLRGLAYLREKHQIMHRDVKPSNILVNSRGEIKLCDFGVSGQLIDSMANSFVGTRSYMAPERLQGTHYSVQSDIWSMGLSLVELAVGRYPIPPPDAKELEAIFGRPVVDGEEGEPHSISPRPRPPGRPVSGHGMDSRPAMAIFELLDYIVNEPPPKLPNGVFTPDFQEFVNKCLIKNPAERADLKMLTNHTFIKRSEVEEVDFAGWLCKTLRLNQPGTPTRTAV", "chain of UniProt P49841 (whole entry, looked up)": "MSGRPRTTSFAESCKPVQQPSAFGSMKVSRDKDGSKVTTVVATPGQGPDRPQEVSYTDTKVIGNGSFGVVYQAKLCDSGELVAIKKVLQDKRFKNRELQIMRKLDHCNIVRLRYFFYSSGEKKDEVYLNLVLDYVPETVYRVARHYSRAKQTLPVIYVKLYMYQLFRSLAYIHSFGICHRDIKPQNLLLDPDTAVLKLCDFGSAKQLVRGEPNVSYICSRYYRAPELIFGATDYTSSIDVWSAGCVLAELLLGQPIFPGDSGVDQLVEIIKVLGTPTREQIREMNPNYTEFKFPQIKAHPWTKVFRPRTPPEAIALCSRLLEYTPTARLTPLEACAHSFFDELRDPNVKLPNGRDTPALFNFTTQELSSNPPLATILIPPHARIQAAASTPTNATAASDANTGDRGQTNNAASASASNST", "chain of UniProt Q15349 (whole entry, looked up)": "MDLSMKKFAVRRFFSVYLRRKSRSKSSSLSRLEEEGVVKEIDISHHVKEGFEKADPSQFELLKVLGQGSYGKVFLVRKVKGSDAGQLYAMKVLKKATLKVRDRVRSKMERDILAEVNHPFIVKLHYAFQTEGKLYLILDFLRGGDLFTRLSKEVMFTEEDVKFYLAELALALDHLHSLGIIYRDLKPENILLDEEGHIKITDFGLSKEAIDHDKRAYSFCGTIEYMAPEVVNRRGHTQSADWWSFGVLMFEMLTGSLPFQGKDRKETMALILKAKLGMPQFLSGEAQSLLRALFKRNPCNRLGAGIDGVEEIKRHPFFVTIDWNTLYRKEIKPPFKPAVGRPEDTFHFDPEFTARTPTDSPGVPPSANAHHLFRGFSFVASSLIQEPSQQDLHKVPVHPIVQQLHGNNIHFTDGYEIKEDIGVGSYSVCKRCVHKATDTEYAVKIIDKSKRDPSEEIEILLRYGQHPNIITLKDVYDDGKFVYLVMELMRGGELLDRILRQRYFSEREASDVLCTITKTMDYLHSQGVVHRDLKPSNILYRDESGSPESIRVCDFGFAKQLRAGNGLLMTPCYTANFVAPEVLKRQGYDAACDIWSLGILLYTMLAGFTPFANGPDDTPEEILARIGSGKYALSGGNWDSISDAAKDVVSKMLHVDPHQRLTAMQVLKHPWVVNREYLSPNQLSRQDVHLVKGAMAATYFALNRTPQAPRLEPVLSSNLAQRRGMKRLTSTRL", "chain of UniProt Q9Y6M4 (whole entry, looked up)": "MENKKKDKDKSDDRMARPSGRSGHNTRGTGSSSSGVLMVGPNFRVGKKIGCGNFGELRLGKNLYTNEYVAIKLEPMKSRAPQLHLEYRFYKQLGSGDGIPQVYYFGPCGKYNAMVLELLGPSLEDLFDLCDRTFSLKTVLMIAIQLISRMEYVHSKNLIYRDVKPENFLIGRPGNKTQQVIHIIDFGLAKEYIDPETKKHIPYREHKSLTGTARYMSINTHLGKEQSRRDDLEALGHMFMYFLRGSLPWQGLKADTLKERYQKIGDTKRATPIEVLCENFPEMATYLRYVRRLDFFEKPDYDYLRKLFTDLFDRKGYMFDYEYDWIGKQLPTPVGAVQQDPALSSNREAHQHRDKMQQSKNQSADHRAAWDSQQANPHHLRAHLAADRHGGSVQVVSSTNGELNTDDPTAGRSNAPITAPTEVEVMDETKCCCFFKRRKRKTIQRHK", "chain of UniProt P62344 (whole entry, looked up)": "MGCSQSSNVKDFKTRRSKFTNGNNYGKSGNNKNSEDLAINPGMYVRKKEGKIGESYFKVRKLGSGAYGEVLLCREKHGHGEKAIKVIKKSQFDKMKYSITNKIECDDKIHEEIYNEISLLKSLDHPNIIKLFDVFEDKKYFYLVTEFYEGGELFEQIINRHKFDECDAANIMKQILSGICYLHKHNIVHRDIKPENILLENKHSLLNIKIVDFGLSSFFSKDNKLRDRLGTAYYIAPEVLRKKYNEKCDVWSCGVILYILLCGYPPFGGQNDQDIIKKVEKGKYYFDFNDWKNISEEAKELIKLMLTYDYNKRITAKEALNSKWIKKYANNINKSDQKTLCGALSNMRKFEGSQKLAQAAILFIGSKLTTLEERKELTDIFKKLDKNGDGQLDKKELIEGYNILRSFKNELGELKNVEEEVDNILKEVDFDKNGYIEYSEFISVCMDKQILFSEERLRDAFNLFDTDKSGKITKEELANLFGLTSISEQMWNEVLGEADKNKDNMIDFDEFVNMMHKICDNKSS", "chain of UniProt P11362 (whole entry, looked up)": "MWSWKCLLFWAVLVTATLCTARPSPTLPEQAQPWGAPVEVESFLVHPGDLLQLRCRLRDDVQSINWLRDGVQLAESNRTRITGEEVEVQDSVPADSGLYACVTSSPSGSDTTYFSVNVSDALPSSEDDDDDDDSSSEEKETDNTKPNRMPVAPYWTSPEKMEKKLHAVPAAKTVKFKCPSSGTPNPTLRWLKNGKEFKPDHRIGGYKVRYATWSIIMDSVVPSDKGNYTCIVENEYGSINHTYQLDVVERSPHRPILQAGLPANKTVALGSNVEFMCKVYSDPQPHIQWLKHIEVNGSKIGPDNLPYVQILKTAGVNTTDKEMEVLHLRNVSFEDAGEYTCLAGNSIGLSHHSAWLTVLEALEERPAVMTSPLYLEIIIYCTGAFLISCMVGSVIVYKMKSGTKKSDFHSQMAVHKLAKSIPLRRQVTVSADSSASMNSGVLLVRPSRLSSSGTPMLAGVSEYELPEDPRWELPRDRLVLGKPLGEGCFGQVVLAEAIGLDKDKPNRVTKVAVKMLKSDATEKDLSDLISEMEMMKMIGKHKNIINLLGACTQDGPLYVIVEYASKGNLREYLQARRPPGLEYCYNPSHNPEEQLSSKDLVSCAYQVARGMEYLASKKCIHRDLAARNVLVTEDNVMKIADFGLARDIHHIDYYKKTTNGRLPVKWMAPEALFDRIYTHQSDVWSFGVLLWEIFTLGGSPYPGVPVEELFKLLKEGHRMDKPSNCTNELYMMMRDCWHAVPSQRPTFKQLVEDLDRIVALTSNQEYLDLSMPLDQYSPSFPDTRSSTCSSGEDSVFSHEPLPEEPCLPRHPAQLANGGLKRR", "chain of UniProt P27361 (whole entry, looked up)": "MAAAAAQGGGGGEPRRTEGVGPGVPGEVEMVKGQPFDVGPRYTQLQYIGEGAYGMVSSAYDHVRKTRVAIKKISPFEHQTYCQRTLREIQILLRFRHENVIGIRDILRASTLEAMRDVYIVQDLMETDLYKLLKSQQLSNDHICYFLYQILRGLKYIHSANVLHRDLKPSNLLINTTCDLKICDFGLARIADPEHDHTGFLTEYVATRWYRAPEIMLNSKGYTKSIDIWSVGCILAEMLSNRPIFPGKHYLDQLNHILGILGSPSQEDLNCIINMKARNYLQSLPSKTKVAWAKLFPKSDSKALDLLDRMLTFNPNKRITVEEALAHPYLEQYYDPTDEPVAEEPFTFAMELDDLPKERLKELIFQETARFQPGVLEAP"}
{"data": "Series 1", "cell line": "mouse MPNST tumor cells", "technique": "high-content immunofluorescence imaging", "item": "nuclear SOX9", "concentration": "10 µM", "time": "12 h", "notes": "mean of 2 replicates", "baseline": "DMSO control", "reading": "higher = more nuclear SOX9"}
{"SMILES": "CN1C[C@H](CNC(=O)OCc2ccccc2)C[C@@H]2c3cccc4c3c(cn4C)C[C@H]21", "nuclear SOX9 intensity": "179 % of DMSO"}
{"SMILES": "CN(C(=O)Oc1nsnc1N1CCOCC1)C1CCCCCCC1", "nuclear SOX9 intensity": "94 % of DMSO"}
{"SMILES": "CCCOc1ccc2[nH]cc(C3=CCNCC3)c2n1", "nuclear SOX9 intensity": "117 % of DMSO"}
{"SMILES": "COCC1(CO)C(=O)C2CCN1CC2 (stereo not drawn)", "nuclear SOX9 intensity": "85.4 % of DMSO"}
{"data": "Series 2", "organism": "Sarcocystis neurona", "observed": "parasite growth", "concentration": "10 µM", "time": "96 h", "notes": "secondary screen"}
{"Structure (SMILES)": "CN1CCN(C(=O)O[C@H]2c3nccnc3C(=O)N2c2ccc(Cl)cn2)CC1", "inhibition [%]": -20.1}
{"Structure (SMILES)": "c1cncc([C@@H]2CCCN2)c1", "inhibition [%]": -43.2}
{"Structure (SMILES)": "FC(F)(F)c1cccc(N2CCNCC2)c1", "inhibition [%]": -45.1}
{"data": "Series 3", "cell line": "HaCaT", "concentration": "100 µM", "time": "18 h"}
{"SMILES": "CN1C[C@H](C(=O)N[C@]2(C)O[C@@]3(O)[C@@H]4CCCN4C(=O)[C@H](Cc4ccccc4)N3C2=O)C=C2c3cccc4[nH]cc(c34)C[C@H]21", "viability": "62.1%"}
{"SMILES": "C[C@H]1CNCCc2ccc(Cl)cc21", "viability": "110%"}
{"SMILES": "NC(=O)CN1CCCC1=O", "viability": "94.3%"}
{"data": "Series 4", "SMILES": "COc1ccc2c(c[n+](C)c3c4cc5c(cc4ccc23)OCO5)c1OC", "observed": "enzyme activity", "action": "inhibitor", "concentration": "0.5 µM"}
{"target": "FGFR3 (Homo sapiens, UniProt P22607)", "how to read": "baseline: control", "remaining activity [%]": 99.1}
{"target": "CSNK1G3 (Homo sapiens, UniProt Q9Y6M4)", "how to read": "baseline: control", "remaining activity [%]": 92.5}
{"target": "WEE1 (Homo sapiens, UniProt P30291)", "how to read": "baseline: control", "remaining activity [%]": 108}
{"target": "FGFR1 (Homo sapiens, UniProt P11362)", "how to read": "baseline: control", "remaining activity [%]": 96}
{"target": "MAP2K2 (Homo sapiens, UniProt P36507)", "how to read": "baseline: control", "remaining activity [%]": 95.6}
{"target": "GSK3B (Homo sapiens, UniProt P49841)", "how to read": "baseline: control", "remaining activity [%]": 88.3}
{"target": "DYRK1B (Homo sapiens, UniProt Q9Y463)", "test": "radiometric", "remaining activity [%]": 102}
{"target": "TBK1 (Homo sapiens, UniProt Q9UHD2)", "how to read": "baseline: control", "remaining activity [%]": 96.2}
{"target": "FRK (Homo sapiens, UniProt P42685)", "how to read": "baseline: control", "remaining activity [%]": 89.3}
{"target": "TEK (Homo sapiens, UniProt Q02763)", "how to read": "baseline: control", "remaining activity [%]": 97.2}
{"target": "MAPK3 (Homo sapiens, UniProt P27361)", "how to read": "baseline: control", "remaining activity [%]": 108}
{"target": "RPS6KA2 (Homo sapiens, UniProt Q15349)", "how to read": "baseline: control", "remaining activity [%]": 86.1}
{"target": "JAK3 (Homo sapiens, UniProt P52333)", "how to read": "baseline: control", "remaining activity [%]": 101}
{"target": "MST1R (Homo sapiens, UniProt Q04912)", "how to read": "baseline: control", "remaining activity [%]": 97.8}
{"data": "Mixed results", "CAMK2A": "Calcium/calmodulin-dependent protein kinase type II subunit alpha (CAMK2A, Homo sapiens, UniProt Q9UQM7)", "chain of UniProt Q9UQM7 (whole entry, looked up)": "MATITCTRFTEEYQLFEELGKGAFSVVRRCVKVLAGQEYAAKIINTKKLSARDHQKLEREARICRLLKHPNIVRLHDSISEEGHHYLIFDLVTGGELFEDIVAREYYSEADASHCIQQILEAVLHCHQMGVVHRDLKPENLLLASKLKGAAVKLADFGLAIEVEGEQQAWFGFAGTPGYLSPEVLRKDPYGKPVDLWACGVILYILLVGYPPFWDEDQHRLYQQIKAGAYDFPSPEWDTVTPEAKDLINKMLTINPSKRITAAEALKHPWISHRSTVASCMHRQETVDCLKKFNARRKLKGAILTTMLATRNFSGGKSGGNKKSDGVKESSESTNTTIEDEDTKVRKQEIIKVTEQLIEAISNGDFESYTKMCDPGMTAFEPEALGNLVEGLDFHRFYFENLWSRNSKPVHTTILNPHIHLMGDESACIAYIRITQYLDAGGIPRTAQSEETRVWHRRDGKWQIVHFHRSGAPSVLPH"}
{"SMILES": "NC(=O)[C@H](Cc1ccccc1)NC(=O)[C@H](Cc1c[nH]c2ccccc12)NC(=O)[C@@H]1CCCN1C(=O)[C@@H](N)Cc1ccc(O)cc1", "tested on": "CAMK2A", "test": "enzyme activity, inhibitor", "conditions": "10 µM", "quantity": "inhibition", "result": "20%"}
{"SMILES": "Cc1cc(NC(=O)c2cccc(S(F)(F)(F)(F)F)c2)cc(-n2ccn3nc(-c4cccnc4)cc23)c1", "tested on": "CDPK1 (Plasmodium falciparum, UniProt P62344)", "test": "cell-free assay, competition with immobilised ligand", "conditions": "1 µM", "quantity": "remaining binding", "result": "95.1%"}
{"SMILES": "COc1ccc2c3c1O[C@H]1C[C@@H](O)CC[C@@]31CCN(C)C2", "tested on": "CAMK2A", "test": "enzyme activity, inhibitor", "conditions": "10 µM", "quantity": "inhibition", "result": "-54%"}
{"SMILES": "COc1ccc2c(O[C@@H]3C[C@H]4C(=O)N[C@]5(C(=O)O)CC5/C=C\\CCCCC[C@H](NC(=O)OC5CCCC5)C(=O)N4C3)cc(-c3csc(NC(=O)C(C)C)n3)nc2c1C (stereo partly drawn)", "tested on": "CRK2 (Plasmodium falciparum, UniProt P61075)", "test": "cell-free assay, competition with immobilised ligand", "conditions": "1 µM", "quantity": "remaining binding", "result": "83%"}
{"SMILES": "c1ccc2c(c1)ccc1c3ccccc3ccc21", "tested on": "CAMK2A", "test": "enzyme activity, inhibitor", "conditions": "10 µM", "quantity": "inhibition", "result": "17%"}
{"SMILES": "CN[C@@H]1C[C@H]2O[C@@](C)([C@@H]1OC)n1c3ccccc3c3c4c(c5c6ccccc6n2c5c31)C(=O)NC4", "tested on": "normal-adjacent organoid sample G", "test": "CellTiter-Glo", "conditions": "1 µM, replicate mean", "how to read": "baseline: DMSO", "quantity": "viability", "result": "3.3%"}
